Published values of several laboratories.
Compare with care: the assays were run in different laboratories. Several values in a cell are separate wells, animals, samples, runs or records. ± gives the spread as reported.

For `CCCCCCCCCCCCC(=O)O.O=C1CCCC2C3CCCN4CCCC(CN12)C34` (stereo not shown), “limiting apparent molar volume” read 431.95 ± 0.2 cm³/mol (water; concentration not given, 308.15 K).
`CCCO[C@H]1[C@H](O)[C@@H](N)[C@@H](O[C@H]2[C@H](O[C@@H]3O[C@H](CO)[C@@H](O[C@H]4O[C@@H](CN)[C@@H](O)[C@H](O)[C@H]4N)[C@H]3O)[C@@H](O)[C@H](N)C[C@@H]2N)O[C@@H]1CO`: tolerability “not toxic” (guinea pig; chronic ototoxicity study).
`CCNc1cc2[o+]c3cc(NCC)c(C)cc3c(-c3ccccc3C(=O)OCCOCC[18F])c2cc1C`: “tissue uptake ratio” 1.2 (rat; 15 min; baseline: heart over lung).
`CC(=CCC(O)C(C)=Cc1csc(C)n1)CC=CC(C)C(O)C(C)C(=O)C(C)(C)C(O)CC(=O)O` (stereo not shown) gave an AUC of 55 ± 27.1 ng·h/mL (human, plasma; intravenous infusion, 6.5 mg/m2 KOS-1584, 3 h infusion, cycle 1).
`COC(=O)C[C@](O)(CCCC(C)(C)OC(C)=O)C(=O)O[C@@H]1C(OC)=C[C@]23CCCN2CCc2cc4c(cc2[C@H]13)OCO4` — result for tissue concentration: “not detected” (CD1 mouse, kidney; oral, 1 mg/kg, 24 h, below quantification limit 1.00 ng/mL).
For `CC(C)C[C@H](NC(=O)[C@H](Cc1ccc(O)cc1)NC(=O)[C@H](Cc1c[nH]cn1)NC(=O)[C@H](CC(N)=O)NC(=O)[C@H](CC(C)C)NC(=O)[C@H](C)NC(=O)[C@H](CC(C)C)NC(=O)CNC(=O)CNC(=O)[C@@H](NC(=O)[C@@H](NC(=O)[C@H](CCCCN)NC(=O)CNC(=O)[C@@H](NC(=O)[C@H](CCCCN)NC(=O)[C@H](CCCCN)NC(=O)[C@H](C)NC(=O)[C@H](CCCCN)NC(=O)[C@H](CCCNC(=N)N)NC(=O)[C@H](Cc1ccccc1)NC(=O)[C@H](Cc1c[nH]c2ccccc12)NC(=O)[C@H](CC(=O)O)NC(=O)[C@H](CCCCN)NC(=O)[C@H](Cc1c[nH]c2ccccc12)NC(=O)CN)C(C)C)[C@@H](C)O)C(C)C)C(N)=O`, “acute toxic concentration” read 5 µg/mL (zebrafish embryos; 1 h, 4, 28, 52 hpf).
For `Cc1cc(O)cc(O)c1C(=O)c1c2c3c(c(O)cc(C)c3oc1=O)C(=O)c1c(O)cc(O)cc1-2`, the MTD was greater than 400 mg/kg (general toxicity; Kunming mouse; intraperitoneal, single dose).
Under “critical micelle concentration”, `CC[C@H](C)[C@H](NC(=O)[C@H](C)NC(=O)CNC(=O)[C@H](Cc1ccccc1)NC(=O)[C@H](CC(N)=O)NC(=O)[C@H](CC(N)=O)NC(=O)[C@H](CO)NC(=O)[C@H](CO)NC(=O)[C@H](Cc1c[nH]cn1)NC(=O)[C@@H](NC(=O)[C@H](CC(C)C)NC(=O)[C@H](Cc1ccccc1)NC(=O)[C@H](CC(N)=O)NC(=O)[C@H](C)NC(=O)[C@H](CC(C)C)NC(=O)[C@H](CCCNC(=N)N)NC(=O)[C@H](CCC(N)=O)NC(=O)[C@@H](NC(=O)[C@H](C)NC(=O)[C@@H]1CSSC[C@H](NC(=O)[C@@H](N)CCCCN)C(=O)N[C@@H](CC(N)=O)C(=O)N[C@@H]([C@@H](C)O)C(=O)N[C@@H](C)C(=O)N[C@@H]([C@@H](C)O)C(=O)N1)[C@@H](C)O)C(C)C)C(=O)N[C@@H](CC(C)C)C(=O)N[C@@H](CO)C(=O)N[C@@H](CO)C(=O)N[C@H](C(=O)N[C@@H](CC(N)=O)C(=O)N[C@H](C(=O)NCC(=O)N[C@@H](CO)C(=O)N[C@@H](CC(N)=O)C(=O)N[C@H](C(=O)N[C@@H](Cc1ccc(O)cc1)C(N)=O)[C@@H](C)O)C(C)C)[C@@H](C)O` is recorded as ~1.5 µM and ~2 µM (pyrene fluorescence; 20 mM phosphate, 50 mM NaCl; pH 7.4, 25 °C).
For `[2H]C([2H])([2H])C([2H])([2H])C([2H])([2H])OC(C(=O)OC1CCNCC1)(c1ccccc1)c1ccccc1`, “adverse drug reactions” read 0% (item: nasopharyngitis; healthy Japanese male; oral, 12 mg, 16 days, multiple ascending dose).
With `C[C@H]1N=C(c2ccccc2F)c2cc(Br)ccc2-n2cnc(C(=O)OC3O[C@H](C(=O)O)[C@@H](O)[C@H](O)[C@H]3O)c21` (stereo partly shown) the cumulative excretion was 2.5 ± 0.5% (LC-MS/MS; Swiss Webster mouse, female, urine; intravenous, 250 µg parent drug, 0 to 24 h).
For `CC[C@@H]1C[C@]1(NC(=O)[C@@H]1C[C@@]2(CN1C(=O)[C@@H](NC(=O)[C@@H](NC(=O)[C@@H]1CCCCN1C(C)C)C1CCCCC1)C(C)(C)C)C(C)(C)C21CCC1)C(=O)NS(=O)(=O)N1CCCC1`, “subjects with adverse event” read 0% (item: Pain; healthy human; oral, 50 mg, added: ritonavir 100 mg).
With `CC[C@H](C)C(=O)N1CCC(NC(=O)Nc2ccc(OC(F)(F)F)c(F)c2)CC1` the AUC(0-t) was 3100 ng·h/mL (human, fasted, plasma; oral, 8 mg, single dose, geometric least-squares mean).
`CCCC[C@H]1C(=O)N(C)[C@@H](CCCC)C(=O)N[C@@H](CCCNC(=O)CN2CCN(CC(=O)O)CCN(CC(=O)O)CCN(CC(=O)O)CC2)C(=O)N[C@H](C(=O)NCC(N)=O)CSCC(=O)N[C@@H](Cc2ccc(O)cc2)C(=O)N(C)[C@@H](C)C(=O)N[C@@H](CC(N)=O)C(=O)N2CCC[C@H]2C(=O)N[C@@H](Cc2c[nH]cn2)C(=O)N[C@@H](CC(C)C)C(=O)N(C)CC(=O)N[C@@H](Cc2c[nH]c3ccccc23)C(=O)N[C@@H](CO)C(=O)N[C@@H](Cc2c[nH]c3ccccc23)C(=O)N1C` [gallium-68 labelled]: “tumour to muscle ratio” 6.83 ± 1.89 (static PET; NOD/SCID mice, CHO-hPD-L1 xenograft, CHO-hPD-L1 tumour; intravenous, 1 h post injection, after five PBS treatments).
With `CC(C)C[C@@H](N)C(=O)NCC(=O)N[C@H](C)C(=O)N[C@H](CO)C(=O)N[C@H](Cc1c[nH]c2ccccc12)C(=O)N[C@H](Cc1c[nH]cn1)C(=O)N[C@H](CCCNC(=N)N)C(=O)N1CCC[C@@H]1C(=O)N[C@H](CC(=O)O)C(=O)N[C@H](CCCCN)C(=O)N[C@H](CS)C(=O)N[C@H](CS)C(=O)N[C@H](CC(C)C)C(=O)NCC(=O)N[C@H](Cc1ccc(O)cc1)C(=O)N[C@H](CCC(N)=O)C(=O)N[C@H](CCCCN)C(=O)N[C@H](CCCNC(=N)N)C(=O)N1CCC[C@@H]1C(=O)N[C@H](CC(C)C)C(=O)N1CCC[C@@H]1C(N)=O` the measured concentration was 563 ± 21 ng/mL (LC-MS/MS; rat plasma; 500 ng/mL, 30 days, -80 °C, storage).
`COc1cc2c3c(c4cc(OC)c(OC)c(OC)c4c2cc1OC)CC1CCCN1C3=O` (stereo not shown) gave a CC50 of greater than 100 µM (swine cells; 24 (unit not given)).
`CSCC[C@@H]1NC(=O)[C@@H]2CSSC[C@H](NC(=O)[C@H](CO)NC(=O)[C@H](C)N)C(=O)N[C@@H](CCCNC(=N)N)C(=O)N[C@@H]([C@@H](C)O)C(=O)N3CCC[C@H]3C(=O)N[C@@H](CCCCN)C(=O)N[C@@H](CC(=O)O)C(=O)N[C@H]3CSSC[C@H](NC(=O)[C@H](CCCCN)NC(=O)[C@H](CCCNC(=N)N)NC(=O)[C@H](CC(N)=O)NC1=O)C(=O)N[C@@H](CCCCN)C(=O)N[C@H]1CSSC[C@H](NC(=O)[C@@H]4CCCN4C(=O)[C@H](CC(=O)O)NC(=O)[C@H](C)NC3=O)C(=O)N[C@@H](C)C(=O)N[C@@H](CCCCN)C(=O)N[C@@H](CCC(=O)O)C(=O)N[C@@H]([C@@H](C)O)C(=O)NCC(=O)N[C@@H](CSSC[C@@H](C(N)=O)NC(=O)[C@H](CCCNC(=N)N)NC(=O)[C@H](CC(N)=O)NC1=O)C(=O)N1CCC[C@H]1C(=O)N[C@@H](Cc1ccc(O)cc1)C(=O)NCC(=O)N[C@@H](CCCCN)C(=O)N2` has an LDH of 480 U/L (DA rat, pristane-induced arthritis, serum; subcutaneous, 0.1 mg/kg once weekly, end of 21-day trial).
The emission maximum of `CC1=CC=c2ccc3c4c2[N]1[Re](=[C]=O)(=[C]=O)(=[C]=O)([C]#[N+]c1c(C)cccc1C)[N]4C(C)=CC=3.O=S(=O)([O-])C(F)(F)F` is reported as 503 nm (PBS, up to 1% DMSO; pH 7.4, air-equilibrated).
`[11CH3]n1c(=O)n(CCCO)c(=O)c2c1nc(Oc1cccc(OC(F)(F)F)c1)n2Cc1ccc(Cl)cc1` gave a tracer uptake of 0.22 ± 0.06 %ID/g (ex vivo biodistribution; Sprague Dawley rat, muscle; 5 min post injection).
`CC(C)[C@H](NC(=O)CNC(=O)[C@H](CCC(N)=O)NC(=O)[C@H](C)N)C(=O)O`: “definitely drug-related adverse events” 0% (healthy human; intravenous, 3 mg/kg single dose; baseline: subjects).
`CSCC[C@H](NC(=O)CNC(=O)[C@H](CCCCN)NC(=O)[C@H](CC(C)C)NC(=O)[C@@H]1CCCN1C(=O)[C@H](CO)NC(=O)[C@H](Cc1c[nH]cn1)NC(=O)[C@H](Cc1c[nH]c2ccccc12)NC(=O)[C@H](CCCNC(=N)N)NC(=O)[C@H](CC(C)C)NC(=O)[C@H](CCCNC(=N)N)NC(=O)[C@H](Cc1c[nH]c2ccccc12)NC(=O)[C@H](CS)NC(=O)CCCCCNC(=O)CN1CCN(CC(=O)O)CCN(CC(=O)O)CCN(CC(=O)O)CC1)C(=O)O` [copper-64 labelled] has a tumour uptake of 6.89 %ID/g (BALB/c nude mice, Huh-7 xenograft, tumour; intravenous, 1.85 MBq, 6 h).
`C1=CCCC=CCC1.F[P-](F)(F)(F)(F)F.[Pt+][c]1ccccc1P(=Nc1ccccc1)(c1ccccc1)c1ccccc1` gave a stability time of 24 h (UV-vis spectroscopy; DMSO:PBS 1:99).
With `COc1cc(NC(=O)C(=O)c2c(C)n(Cc3ccc(Cl)cc3)c3ccc(C)cc23)ccn1` the CL was 9.61 mL/min/kg and 5.91 mL/min/kg and 6.84 mL/min/kg and 6.93 mL/min/kg and 7.96 mL/min/kg (cynomolgus monkey, male, plasma; intravenous, 1 mg/kg).
